# Measured values of several laboratories.
# Values joined by “and” are separate records of one study, mostly repeats; a detail may differ. Numbers after ± are the reported error.
# CDK5 with p25: Cyclin-dependent kinase 5, with p25 (CDK5, Homo sapiens, UniProt Q00535)
# Sequence of UniProt Q00535 (whole entry, looked up): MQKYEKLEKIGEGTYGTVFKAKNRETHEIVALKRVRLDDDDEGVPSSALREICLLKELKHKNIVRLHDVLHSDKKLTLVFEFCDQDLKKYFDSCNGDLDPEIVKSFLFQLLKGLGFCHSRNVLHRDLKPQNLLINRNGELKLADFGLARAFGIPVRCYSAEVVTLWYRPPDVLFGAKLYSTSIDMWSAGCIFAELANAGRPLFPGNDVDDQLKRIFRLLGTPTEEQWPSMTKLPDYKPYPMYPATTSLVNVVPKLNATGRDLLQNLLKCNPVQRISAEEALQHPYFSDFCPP
# U2AF2: U2AF2 148-342 (Homo sapiens, UniProt P26368)
# Sequence of UniProt P26368 (whole entry, looked up): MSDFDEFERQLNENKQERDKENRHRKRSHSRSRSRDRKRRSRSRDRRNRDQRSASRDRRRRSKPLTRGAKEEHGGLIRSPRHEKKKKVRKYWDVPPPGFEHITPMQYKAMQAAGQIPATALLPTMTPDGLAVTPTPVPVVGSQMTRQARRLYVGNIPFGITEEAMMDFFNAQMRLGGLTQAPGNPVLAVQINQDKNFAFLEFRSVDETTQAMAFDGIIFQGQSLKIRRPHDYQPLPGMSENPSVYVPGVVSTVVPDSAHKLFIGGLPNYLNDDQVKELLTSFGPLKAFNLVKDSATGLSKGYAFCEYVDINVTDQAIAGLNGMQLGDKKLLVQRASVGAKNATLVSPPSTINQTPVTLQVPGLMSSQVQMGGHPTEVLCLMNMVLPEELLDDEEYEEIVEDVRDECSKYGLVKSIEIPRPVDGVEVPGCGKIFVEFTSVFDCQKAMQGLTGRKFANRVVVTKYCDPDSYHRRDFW
# B1: human desmocollin-1; sequence looked up; chain RWAPIPASLMENSLGPFPQHVQQIQSDAAQNYTIFYSISGPGVDKEPFNLFYIEKDTGDIFCTRSIDREKYEQFALYGYATTADGYAPEYPLPLIIKIEDDNDNAPYFEHRVTIFTVPENCRSGTSVGKVTATDLDEPDTLHTRLKYKILQQIPDHPKHFSIHPDTGVITTTTPFLDREKCDTYQLIMEVRDMGGQPFGLFNTGTITISLEDENDNPPSFTETSYVTEVEENRIDVEILRMKVQDQDLPNTPHSKAVYKILQGNENGNFIISTDPNTNEGVLCVVKPLNYEVNRQVILQVGVINEAQFSKAASSQTPTMCTTTVTVKIIDSDEGPECHPPVKVIQSQDGFPAGQELLGYKALDPEISSGEGLRYQKLGDEDNWFEINQHTGDLRTLKVLDRESKFVKNNQYNISVVAVDAVGRSCTGTLVVHLDDYNDHAPQIDKEVTICQNNEDFAVLKPVDPDGPENGPPFQFFLDNSASKNWNIEEKDGKTAILRQRQNLDYNYYSVPIQIKDRHGLVATHMLTVRVCDCSTPSECRMKDKSTRDVRPNVILGRWAILAMVLGSVLLLCILFTCFCVTAKRTVKKCFPEDIAQQNLIVSNTEGPGEEVTEANIRLPMQTSNICDTSMSVGTVGGQGIKTQQSFEMVKGGYTLDSNKGGGHQTLESVKGVGQGDTGRYAYTDWQSFTQPRLGEKVYLCGQDEEHKHCEDYVCSYNYEGKGSLAGSVGCCSDRQEEEGLEFLDHLEPKFRTLAKTCIKK
# B2: chain MSEILPYGEDKMGRFGADPEGSDLSFSCRLQDTNSFFAGNQAKRPPKLGQIGRAKRVVIEDDRIDDVLKGMGEKPPSGV
# Sequence of UniProt Q64663 (whole entry, unmodified, looked up): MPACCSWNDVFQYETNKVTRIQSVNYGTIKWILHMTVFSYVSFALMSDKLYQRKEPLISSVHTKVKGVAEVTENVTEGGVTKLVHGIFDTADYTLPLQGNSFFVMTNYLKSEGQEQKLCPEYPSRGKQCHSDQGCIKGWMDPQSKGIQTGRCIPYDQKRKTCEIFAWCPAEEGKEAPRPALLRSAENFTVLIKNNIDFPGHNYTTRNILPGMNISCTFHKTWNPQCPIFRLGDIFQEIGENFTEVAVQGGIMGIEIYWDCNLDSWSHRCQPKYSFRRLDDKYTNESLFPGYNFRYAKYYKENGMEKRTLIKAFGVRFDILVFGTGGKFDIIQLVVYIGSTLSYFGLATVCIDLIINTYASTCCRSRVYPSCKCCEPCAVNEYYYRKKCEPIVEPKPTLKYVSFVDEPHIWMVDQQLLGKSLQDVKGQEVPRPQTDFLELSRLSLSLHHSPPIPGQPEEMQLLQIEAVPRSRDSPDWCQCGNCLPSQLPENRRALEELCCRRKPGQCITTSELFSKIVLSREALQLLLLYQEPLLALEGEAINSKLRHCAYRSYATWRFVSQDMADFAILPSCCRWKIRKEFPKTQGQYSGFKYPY
# Sequence of UniProt Q9UQM7 (whole entry, unmodified, looked up): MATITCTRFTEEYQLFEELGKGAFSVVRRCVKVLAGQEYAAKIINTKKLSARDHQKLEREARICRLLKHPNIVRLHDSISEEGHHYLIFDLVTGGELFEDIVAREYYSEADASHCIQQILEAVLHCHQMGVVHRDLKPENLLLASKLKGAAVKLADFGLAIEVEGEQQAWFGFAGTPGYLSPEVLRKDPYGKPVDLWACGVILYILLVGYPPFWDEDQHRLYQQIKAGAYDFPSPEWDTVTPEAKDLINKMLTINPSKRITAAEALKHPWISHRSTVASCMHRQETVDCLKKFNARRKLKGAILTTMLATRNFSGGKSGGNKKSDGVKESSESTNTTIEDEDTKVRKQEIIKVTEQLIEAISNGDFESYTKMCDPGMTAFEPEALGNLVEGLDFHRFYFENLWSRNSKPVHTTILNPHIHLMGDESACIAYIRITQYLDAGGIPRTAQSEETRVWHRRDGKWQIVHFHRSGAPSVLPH
# Sequence of UniProt P13393 (whole entry, looked up): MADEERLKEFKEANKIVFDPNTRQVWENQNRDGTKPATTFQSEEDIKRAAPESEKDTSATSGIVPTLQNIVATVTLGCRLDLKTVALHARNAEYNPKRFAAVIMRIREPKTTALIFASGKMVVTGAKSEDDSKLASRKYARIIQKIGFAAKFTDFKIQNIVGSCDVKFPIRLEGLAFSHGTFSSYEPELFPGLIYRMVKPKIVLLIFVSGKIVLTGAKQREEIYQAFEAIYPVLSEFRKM
# Sequence of UniProt Q5ANA3 (whole entry, looked up): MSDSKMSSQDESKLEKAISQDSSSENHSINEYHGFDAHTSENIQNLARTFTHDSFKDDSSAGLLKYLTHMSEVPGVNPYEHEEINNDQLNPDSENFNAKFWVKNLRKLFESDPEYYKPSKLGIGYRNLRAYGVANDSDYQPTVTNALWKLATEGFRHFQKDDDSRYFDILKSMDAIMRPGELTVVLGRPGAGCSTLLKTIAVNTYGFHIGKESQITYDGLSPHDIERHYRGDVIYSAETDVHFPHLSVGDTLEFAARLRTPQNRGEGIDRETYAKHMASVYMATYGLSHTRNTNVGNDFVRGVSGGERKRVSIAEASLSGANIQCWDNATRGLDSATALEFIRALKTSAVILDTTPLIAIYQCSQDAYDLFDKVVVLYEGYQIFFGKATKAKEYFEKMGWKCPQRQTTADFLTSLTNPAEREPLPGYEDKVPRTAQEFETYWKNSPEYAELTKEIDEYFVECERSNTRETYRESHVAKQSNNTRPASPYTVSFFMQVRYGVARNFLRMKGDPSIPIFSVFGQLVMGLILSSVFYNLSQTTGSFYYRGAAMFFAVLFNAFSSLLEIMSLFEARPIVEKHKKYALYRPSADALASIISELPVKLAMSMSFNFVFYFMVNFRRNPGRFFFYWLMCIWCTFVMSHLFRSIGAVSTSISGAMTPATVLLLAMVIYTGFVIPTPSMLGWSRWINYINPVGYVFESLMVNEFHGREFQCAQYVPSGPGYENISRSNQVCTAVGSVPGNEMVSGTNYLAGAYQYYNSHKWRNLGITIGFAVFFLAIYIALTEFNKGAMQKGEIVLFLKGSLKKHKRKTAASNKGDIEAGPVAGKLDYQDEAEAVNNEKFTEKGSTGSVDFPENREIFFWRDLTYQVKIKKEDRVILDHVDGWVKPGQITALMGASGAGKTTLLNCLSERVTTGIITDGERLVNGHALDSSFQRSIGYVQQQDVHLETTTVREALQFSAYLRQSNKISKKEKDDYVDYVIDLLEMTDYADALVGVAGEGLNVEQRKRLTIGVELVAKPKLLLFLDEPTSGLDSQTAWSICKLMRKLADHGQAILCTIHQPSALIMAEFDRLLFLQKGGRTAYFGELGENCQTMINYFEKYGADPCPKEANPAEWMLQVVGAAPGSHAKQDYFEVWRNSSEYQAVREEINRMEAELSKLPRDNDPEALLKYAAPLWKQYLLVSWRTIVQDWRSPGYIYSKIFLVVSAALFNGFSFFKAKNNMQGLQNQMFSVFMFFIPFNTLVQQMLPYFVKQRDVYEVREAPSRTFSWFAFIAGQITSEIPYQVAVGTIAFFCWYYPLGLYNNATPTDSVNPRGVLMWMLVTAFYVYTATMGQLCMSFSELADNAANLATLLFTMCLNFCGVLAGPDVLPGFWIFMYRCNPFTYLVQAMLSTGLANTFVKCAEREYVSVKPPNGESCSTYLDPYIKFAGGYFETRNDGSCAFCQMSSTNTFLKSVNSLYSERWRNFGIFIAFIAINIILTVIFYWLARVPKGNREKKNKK
Substance,target or system,test,system,conditions,how to read,quantity,value
KEAFWDRCVSVINLMSSKMLQINA,CDK5 with p25,"phosphotransferase activity, radiometric",peptide,"concentration not given, 10% DMSO, together with: histone substrate",reference: p5-WT peptide,activity change,50%
human ME2 E90D,,"enzyme activity, NADH absorbance",,"without fumarate, together with: L-malate varied",,Hill coefficient,1.12 ± 0.03
B1 (human desmocollin-1),CYB5R4 knockout human cells,"PP4 interaction, 3xFLAG-PP4C IP-MS",,concentration not given,reference: CYB5R4 KO over parental,log2 fold change,0.83
UCUGUUACA (ssRNA),U2AF2,sequencing of bound RNA,RNA,motif only,,Kd,13 µM
11-deoxycorticosterone,human CYP11B2,stopped-flow kinetic modelling,,"4-state closed model (best), together with: 40-fold excess adrenodoxin",,association rate constant k4,1.635e+07 ± 31700 M⁻¹ s⁻¹
BzATP,"P2X purinoceptor 7 (P2rx7, Rattus norvegicus, UniProt Q64663, Q143A/R125A)","ion current, agonist, two-electrode voltage clamp",Xenopus laevis oocytes,33 µM,reference: highest concentration response,normalized current,0.753 and 0.804 and 0.825
human ME2 R70K,,"enzyme activity, NADH absorbance",,"without fumarate, together with: L-malate varied",,Hill coefficient,1.58 ± 0.12
UUUGUUUGC (ssRNA),U2AF2,sequencing of bound RNA,RNA,motif only,,Kd,10.3 µM
KEAFWDRCLSVINLMSSKALQINA,CDK5 with p25,"phosphotransferase activity, radiometric",peptide,"concentration not given, 10% DMSO, together with: histone substrate",reference: p5-WT peptide,activity change,40%
human ME2 R67A,,"enzyme activity, NADH absorbance",,"with fumarate 3 mM, together with: L-malate varied",,Hill coefficient,1.2 ± 0.21
B2,"Calcium/calmodulin-dependent protein kinase type II subunit alpha (CAMK2A, Homo sapiens, UniProt Q9UQM7, D135N/W214A)","binding, isothermal titration calorimetry",,,,ΔH,-6.02 kcal/mol and -5.95 kcal/mol
TGGCACTCGGGAGGCAGCGGCGACTTTGGGGAAAGTCAAGTCAATCGGTCC (dsDNA; 5'-amino-C6 primer),"SPT15 full length assumed (Saccharomyces cerevisiae, UniProt P13393)",array,"double-stranded DNA, one strand shown",TBP alone,,Kd,0.0129 ± 0.00138 µM
human ME2 I99V,,"enzyme activity, NADH absorbance",,"without fumarate, together with: L-malate varied",,Hill coefficient,1.58 ± 0.05
KEAFWDRCISVINLMSSKMLQINA,CDK5 with p25,"phosphotransferase activity, radiometric",peptide,"concentration not given, 10% DMSO, together with: histone substrate",reference: p5-WT peptide,activity change,36%
H-KQGTGKVQK-OH,HeLa nuclei,"central DNA signal, confocal microscopy, PI staining",peptide,"mean of nuclei, together with: MNase 10-2 U/mL",reference: 0 U/mL MNase,normalised fluorescence intensity,0.423
milbemycin oxime,"CDR1 (Candida albicans, UniProt Q5ANA3)","binding, microscale thermophoresis",,2.5 µM,,fraction bound,91.2%
KEAFWDRCLSVINAMSSKMLQINA,CDK5 with p25,"phosphotransferase activity, radiometric",peptide,"concentration not given, 10% DMSO, together with: histone substrate",reference: p5-WT peptide,activity change,42%
"clusterin, human",CYB5R4 knockout human cells,"PP4 interaction, 3xFLAG-PP4C IP-MS",,concentration not given,reference: CYB5R4 KO over parental,log2 fold change,-1.69
KEAFWDRCLTVINLMSSKMLQINA,CDK5 with p25,"phosphotransferase activity, radiometric",peptide,"concentration not given, 10% DMSO, together with: histone substrate",reference: p5-WT peptide,activity change,56%
human ME2 K81R,,"enzyme activity, NADH absorbance",,"without fumarate, together with: L-malate varied",,Hill coefficient,1.76 ± 0.09
